Measured values pooled from the literature.
Each numbered part is a random draw from the data of one study; scales do not carry over between parts. Values joined by “and” are separate records of one study, mostly repeats; a detail may differ.
UniProt Q96RG2, sequence (whole entry, looked up): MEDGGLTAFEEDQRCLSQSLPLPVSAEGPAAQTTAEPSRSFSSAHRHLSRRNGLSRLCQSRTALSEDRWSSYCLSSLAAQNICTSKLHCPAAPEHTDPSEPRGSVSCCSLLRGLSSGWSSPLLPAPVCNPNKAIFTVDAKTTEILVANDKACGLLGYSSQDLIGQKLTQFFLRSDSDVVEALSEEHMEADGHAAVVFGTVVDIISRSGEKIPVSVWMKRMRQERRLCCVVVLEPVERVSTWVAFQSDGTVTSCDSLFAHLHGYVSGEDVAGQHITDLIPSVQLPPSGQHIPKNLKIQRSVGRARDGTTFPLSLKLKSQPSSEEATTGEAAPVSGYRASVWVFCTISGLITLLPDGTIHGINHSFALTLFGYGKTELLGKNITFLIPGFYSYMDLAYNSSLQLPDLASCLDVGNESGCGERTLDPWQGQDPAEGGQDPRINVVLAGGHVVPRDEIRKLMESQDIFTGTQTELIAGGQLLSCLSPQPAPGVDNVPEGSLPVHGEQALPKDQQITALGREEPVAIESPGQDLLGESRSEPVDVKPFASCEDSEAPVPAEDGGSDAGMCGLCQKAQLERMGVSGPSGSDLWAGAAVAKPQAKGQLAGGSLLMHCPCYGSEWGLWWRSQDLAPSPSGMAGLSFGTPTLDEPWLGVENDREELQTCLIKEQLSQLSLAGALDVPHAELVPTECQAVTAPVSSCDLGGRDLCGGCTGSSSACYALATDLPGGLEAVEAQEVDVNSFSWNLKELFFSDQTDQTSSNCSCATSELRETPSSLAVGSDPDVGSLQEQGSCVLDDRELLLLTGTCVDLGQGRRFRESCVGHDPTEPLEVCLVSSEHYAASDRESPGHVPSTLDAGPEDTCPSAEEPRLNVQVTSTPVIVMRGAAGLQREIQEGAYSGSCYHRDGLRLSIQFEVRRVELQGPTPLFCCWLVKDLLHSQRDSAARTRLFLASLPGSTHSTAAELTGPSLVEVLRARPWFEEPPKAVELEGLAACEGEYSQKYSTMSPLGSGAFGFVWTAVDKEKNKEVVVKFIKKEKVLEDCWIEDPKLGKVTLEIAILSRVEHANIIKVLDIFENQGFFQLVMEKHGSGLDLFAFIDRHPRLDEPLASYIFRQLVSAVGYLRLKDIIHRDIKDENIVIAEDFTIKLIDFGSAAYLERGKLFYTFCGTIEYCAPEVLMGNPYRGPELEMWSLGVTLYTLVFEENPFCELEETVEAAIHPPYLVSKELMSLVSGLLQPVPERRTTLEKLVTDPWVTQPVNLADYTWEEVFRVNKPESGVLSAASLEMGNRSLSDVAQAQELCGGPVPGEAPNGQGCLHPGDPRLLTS
UniProt Q13043, sequence (whole entry, looked up): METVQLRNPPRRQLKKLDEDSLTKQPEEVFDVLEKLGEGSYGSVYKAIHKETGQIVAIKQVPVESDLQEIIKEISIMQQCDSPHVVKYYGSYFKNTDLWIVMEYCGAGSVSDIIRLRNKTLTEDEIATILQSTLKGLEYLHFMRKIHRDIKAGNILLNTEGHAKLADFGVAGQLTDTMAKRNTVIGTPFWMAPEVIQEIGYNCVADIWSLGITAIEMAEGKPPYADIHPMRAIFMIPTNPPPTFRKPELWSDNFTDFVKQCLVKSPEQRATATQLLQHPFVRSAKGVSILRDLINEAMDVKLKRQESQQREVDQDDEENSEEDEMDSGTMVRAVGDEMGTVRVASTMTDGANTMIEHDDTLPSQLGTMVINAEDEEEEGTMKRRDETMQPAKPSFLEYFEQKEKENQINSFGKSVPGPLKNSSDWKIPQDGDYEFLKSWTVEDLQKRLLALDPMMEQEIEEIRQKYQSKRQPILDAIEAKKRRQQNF
UniProt Q9UM73, sequence (whole entry, looked up): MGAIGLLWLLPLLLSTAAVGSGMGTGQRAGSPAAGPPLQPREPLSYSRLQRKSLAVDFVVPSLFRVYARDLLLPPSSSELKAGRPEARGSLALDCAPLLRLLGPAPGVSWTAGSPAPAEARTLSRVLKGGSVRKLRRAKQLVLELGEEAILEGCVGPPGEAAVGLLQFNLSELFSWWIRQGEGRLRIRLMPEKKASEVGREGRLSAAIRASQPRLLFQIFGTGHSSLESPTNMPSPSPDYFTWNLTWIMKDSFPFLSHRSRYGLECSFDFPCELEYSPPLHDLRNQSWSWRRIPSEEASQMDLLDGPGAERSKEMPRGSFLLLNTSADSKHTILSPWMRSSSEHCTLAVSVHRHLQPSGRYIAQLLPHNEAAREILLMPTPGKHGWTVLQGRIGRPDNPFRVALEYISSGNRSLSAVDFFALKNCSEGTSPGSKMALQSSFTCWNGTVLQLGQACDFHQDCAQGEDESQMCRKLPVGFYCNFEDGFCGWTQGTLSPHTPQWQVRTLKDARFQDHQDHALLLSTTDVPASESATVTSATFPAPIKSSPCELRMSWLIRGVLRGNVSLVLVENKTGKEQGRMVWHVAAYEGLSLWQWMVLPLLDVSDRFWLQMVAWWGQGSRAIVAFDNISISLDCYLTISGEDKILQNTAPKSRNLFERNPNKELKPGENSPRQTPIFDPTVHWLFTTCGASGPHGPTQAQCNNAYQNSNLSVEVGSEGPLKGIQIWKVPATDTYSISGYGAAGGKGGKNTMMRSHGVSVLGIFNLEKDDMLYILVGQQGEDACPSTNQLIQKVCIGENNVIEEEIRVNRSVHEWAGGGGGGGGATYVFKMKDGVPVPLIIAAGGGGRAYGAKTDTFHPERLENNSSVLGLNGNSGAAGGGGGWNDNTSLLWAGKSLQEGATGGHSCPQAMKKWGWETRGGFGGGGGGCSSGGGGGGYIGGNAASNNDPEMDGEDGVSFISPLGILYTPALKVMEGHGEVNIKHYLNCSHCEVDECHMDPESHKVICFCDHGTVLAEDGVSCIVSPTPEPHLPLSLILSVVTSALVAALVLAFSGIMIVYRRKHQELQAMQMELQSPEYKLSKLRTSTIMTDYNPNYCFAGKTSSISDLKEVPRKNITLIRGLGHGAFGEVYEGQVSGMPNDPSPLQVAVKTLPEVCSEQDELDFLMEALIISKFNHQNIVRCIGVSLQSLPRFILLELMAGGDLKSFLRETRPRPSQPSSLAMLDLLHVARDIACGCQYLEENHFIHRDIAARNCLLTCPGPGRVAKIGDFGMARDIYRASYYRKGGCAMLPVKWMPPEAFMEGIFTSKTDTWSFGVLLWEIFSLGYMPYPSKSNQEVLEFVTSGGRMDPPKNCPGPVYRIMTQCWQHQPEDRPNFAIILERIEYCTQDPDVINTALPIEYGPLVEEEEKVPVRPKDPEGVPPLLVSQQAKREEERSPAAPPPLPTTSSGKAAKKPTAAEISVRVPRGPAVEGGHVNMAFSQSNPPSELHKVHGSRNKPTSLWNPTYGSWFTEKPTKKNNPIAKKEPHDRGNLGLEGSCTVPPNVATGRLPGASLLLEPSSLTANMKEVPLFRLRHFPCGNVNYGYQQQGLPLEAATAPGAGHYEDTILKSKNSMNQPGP
UniProt Q16512, sequence (whole entry, looked up): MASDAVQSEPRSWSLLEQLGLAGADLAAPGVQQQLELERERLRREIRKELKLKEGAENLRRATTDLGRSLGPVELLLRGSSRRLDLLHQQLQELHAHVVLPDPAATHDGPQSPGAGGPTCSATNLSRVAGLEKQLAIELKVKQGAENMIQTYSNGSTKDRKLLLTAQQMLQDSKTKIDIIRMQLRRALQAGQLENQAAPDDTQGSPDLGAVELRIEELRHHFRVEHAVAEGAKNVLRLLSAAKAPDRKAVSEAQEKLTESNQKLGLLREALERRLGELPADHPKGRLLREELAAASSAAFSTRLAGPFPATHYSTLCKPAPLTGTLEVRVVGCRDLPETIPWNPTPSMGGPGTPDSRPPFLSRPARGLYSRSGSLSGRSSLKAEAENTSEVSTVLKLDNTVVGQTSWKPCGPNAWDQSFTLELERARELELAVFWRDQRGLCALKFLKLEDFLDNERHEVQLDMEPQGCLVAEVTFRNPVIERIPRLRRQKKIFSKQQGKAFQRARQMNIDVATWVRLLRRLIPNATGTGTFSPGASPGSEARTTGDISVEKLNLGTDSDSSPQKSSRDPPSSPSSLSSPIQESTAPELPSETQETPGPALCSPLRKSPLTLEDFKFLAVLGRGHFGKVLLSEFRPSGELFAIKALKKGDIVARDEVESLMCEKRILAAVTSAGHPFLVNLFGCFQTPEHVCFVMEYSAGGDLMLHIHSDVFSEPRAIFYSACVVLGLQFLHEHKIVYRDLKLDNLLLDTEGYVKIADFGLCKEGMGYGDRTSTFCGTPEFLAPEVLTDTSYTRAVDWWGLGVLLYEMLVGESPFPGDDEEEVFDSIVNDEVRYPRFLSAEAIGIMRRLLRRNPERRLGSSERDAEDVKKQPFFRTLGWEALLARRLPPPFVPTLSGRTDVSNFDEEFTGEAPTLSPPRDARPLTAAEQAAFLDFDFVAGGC
UniProt P07948, sequence (whole entry, looked up): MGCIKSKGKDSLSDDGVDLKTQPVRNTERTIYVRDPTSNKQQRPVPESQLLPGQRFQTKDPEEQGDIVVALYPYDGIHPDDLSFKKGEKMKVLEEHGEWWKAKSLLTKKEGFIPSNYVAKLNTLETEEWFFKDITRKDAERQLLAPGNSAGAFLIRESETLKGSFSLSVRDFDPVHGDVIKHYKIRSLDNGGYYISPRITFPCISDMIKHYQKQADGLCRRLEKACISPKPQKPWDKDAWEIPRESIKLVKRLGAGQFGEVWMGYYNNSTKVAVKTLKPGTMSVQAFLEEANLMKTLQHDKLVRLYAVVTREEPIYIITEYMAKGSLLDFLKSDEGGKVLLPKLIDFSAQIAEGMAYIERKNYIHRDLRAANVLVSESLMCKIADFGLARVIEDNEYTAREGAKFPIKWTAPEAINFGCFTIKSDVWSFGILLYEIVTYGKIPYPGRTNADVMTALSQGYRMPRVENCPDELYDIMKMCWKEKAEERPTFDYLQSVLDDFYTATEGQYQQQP

Block 1 — SMILES: c1ccc(-c2n[nH]c3c2oc2ccccc23)cc1; observed: enzyme activity; action: inhibitor; concentration: 0.5 µM; reference: control
| target | remaining activity |
| --- | --- |
| NEK11 (Homo sapiens, UniProt Q8NG66) | 103% |
| PASK (Homo sapiens, UniProt Q96RG2) | 97.4% |
| FLT4 (Homo sapiens, UniProt P35916) | 108% |
| ITK (Homo sapiens, UniProt Q08881) | 80.4% |
| ALK (Homo sapiens, UniProt Q9UM73) | 95.9% |
| PRKX (Homo sapiens, UniProt P51817) | 79.8% |
| Cyclin-dependent kinase 3, with cyclin E (CDK3, Homo sapiens, UniProt Q00526) | 90% |
| MATK (Homo sapiens, UniProt P42679) | 94% |
| LIM domain kinase 1 (LIMK1, Homo sapiens, UniProt P53667) | 71.2% |
| HIPK1 (Homo sapiens, UniProt Q86Z02) | 103% |
| NLK (Homo sapiens, UniProt Q9UBE8) | 92.3% |
| SRC (Homo sapiens, UniProt P12931) | 81.3% |
| MARK3 (Homo sapiens, UniProt P27448) | 96.5% |
| AKT1 (Homo sapiens, UniProt P31749) | 86.9% |
| STK25 (Homo sapiens, UniProt O00506) | 89.6% |
| Insulin receptor (INSR, Homo sapiens, UniProt P06213) | 94.4% |
| CDC42BPA (Homo sapiens, UniProt Q5VT25) | 87.4% |
| PKN1 (Homo sapiens, UniProt Q16512) | 94.1% |
| FGR (Homo sapiens, UniProt P09769) | 116% |
| FER (Homo sapiens, UniProt P16591) | 103% |
| TAOK3 (Homo sapiens, UniProt Q9H2K8) | 94.8% |
| FYN (Homo sapiens, UniProt P06241) | 104% |

Block 2 — observed: cell-free assay; technique: competition with immobilised ligand; concentration: 1 µM
SMILES: C[C@H](c1cccc(C#N)c1)n1cc(Cl)cc(C(N)=O)c1=N
| target | remaining binding [%] |
| --- | --- |
| DCLK1 (Homo sapiens, UniProt O15075) | 76 |
| EPHB4 (Homo sapiens, UniProt P54760) | 89 |
| LYN (Homo sapiens, UniProt P07948) | 81 |
| AXL (Homo sapiens, UniProt P30530) | 100 |
| Tyrosine-protein kinase ABL1, phosphorylated (ABL1, Homo sapiens, UniProt P00519) | 77 |
| CLK1 (Homo sapiens, UniProt P49759) | 100 |
| Cyclin-dependent kinase 4, with cyclin D1 (CDK4, Homo sapiens, UniProt P11802) | 97 |
| LTK (Homo sapiens, UniProt P29376) | 99 |
| RAF1 (Homo sapiens, UniProt P04049) | 100 |
| MAP3K14 (Homo sapiens, UniProt Q99558) | 62 |
| DYRK1A (Homo sapiens, UniProt Q13627) | 65 |
| STK4 (Homo sapiens, UniProt Q13043) | 100 |
| ULK1 (Homo sapiens, UniProt O75385) | 78 |
| EPHB6 (Homo sapiens, UniProt O15197) | 87 |
| Receptor-type tyrosine-protein kinase FLT3, autoinhibited (FLT3, Homo sapiens, UniProt P36888) | 90 |
| MAPK6 (Homo sapiens, UniProt Q16659) | 0 |
| LRRK2 (Homo sapiens, UniProt Q5S007) | 100 |
| TNK1 (Homo sapiens, UniProt Q13470) | 77 |

Block 3
SMILES: COc1cc(C(=O)N2CCC(N3CCN(C)CC3)CC2)ccc1Nc1ncc2c(n1)N(C)c1ccccc1C(=O)N2C
| target or system | test | test system | setting | inhibition |
| --- | --- | --- | --- | --- |
| NIM1 (mouse) | probe labelling, KiNativ ADP probe | mouse brain lysate | 1 µM, LYS1 labelled site | 1.3% |
| human PBMC | probe labeling, inhibitor, KiNativ profiling, refers to: DIkGANILR | cell lysate | concentration not given, LYS2 site, added: ADP acyl-phosphate probe | -19.1% |
| human PBMC | probe labeling, inhibitor, KiNativ profiling | cell lysate | concentration not given, ATP site, added: ATP acyl-phosphate probe 0.1 µM | -19.8% |
| FYN (human) | probe labelling, KiNativ ADP probe | human PBMC lysate | concentration not given, LYS1 labelled site | -4.7% |
| BRSK2 (mouse) | probe labelling, KiNativ ADP probe | mouse brain lysate | 1 µM, LYS2 labelled site | -14.7% |
| PIP4K2C (mouse) | probe labelling, KiNativ, refers to: ATP site peptide | brain tissue lysate (mouse) | 1 µM, added: ATP acyl-phosphate probe | -4.3% |
| MAP2K3 (human) | probe labelling, KiNativ ADP probe | human PBMC lysate | concentration not given, LYS2 labelled site | 9.2% |
| MYLK | KiNativ ATP probe | mouse brain lysate | 1 µM, LYS2 site | 8.9% |
| human PBMC | probe labeling, inhibitor, KiNativ profiling, refers to: DVkPDNMLLDK | cell lysate | concentration not given, LYS2 site, added: ATP acyl-phosphate probe 0.1 µM | 2.7% |
| ZC1/HGK (mouse) | probe labelling, KiNativ, refers to: LYS1 site peptide | brain tissue lysate (mouse) | 0.1 µM, added: ADP acyl-phosphate probe | -21.7% and -25% |
| human PBMC | probe labeling, inhibitor, KiNativ profiling | cell lysate | concentration not given, domain 1, LYS2 site, added: ADP acyl-phosphate probe 1 µM | -1.4% |
| mouse PIP5K3 | probe labelling, KiNativ ADP probe | mouse brain lysate | 1 µM, ATP site | 25.5% |
| MST2 (mouse) | probe labelling, KiNativ ATP probe | mouse brain lysate | 0.1 µM, LYS1 labelled site | -159% |
| human PBMC | probe labeling, inhibitor, KiNativ profiling, refers to: DTGHVYAMkILR | cell lysate | concentration not given, LYS1 site, added: ATP acyl-phosphate probe | 14.6% |
| AXL mouse | KiNativ profiling | mouse brain lysate | 0.1 µM, activation loop site, added: ADP acyl phosphate probe | -32.9% |
| RSK3 domain 1 (mouse) | probe labelling, inhibitor, KiNativ ActivX ADP probe | mouse brain lysate | 1 µM, activation loop peptide | -9.3% |

Block 4 — cell line: HaCaT; concentration: 100 µM; time: 36 h
| Structure (SMILES) | viability |
| --- | --- |
| CC(=O)OC/C=C(C)/C=C/C=C(C)/C=C/C1=C(C)CCCC1(C)C | 82.7% |
| O=C(O)CCn1c2c(c3ccccc31)C[C@H](NS(=O)(=O)c1ccc(F)cc1)CC2 | 91.8% |
| Fc1ccc([C@@H]2CCNC[C@H]2COc2ccc3c(c2)OCO3)cc1 | 5.62% |
| N=C(N)N/N=C/c1c(Cl)cccc1Cl | 6.57% |
| O=C1CN(/N=C/c2ccc(-c3ccc([N+](=O)[O-])cc3)o2)C(O)=N1 | 69.5% |
| CCCCC[C@H](O)/C=C/[C@H]1[C@H](O)CC(=O)[C@@H]1CCCCCCC(=O)O | 113% |
| CCCCC(O)c1ccccc1 (stereo not drawn) | 89.3% |
| C[C@H](N)[C@H](O)c1cccc(O)c1 | 74.9% |
| COCCCOc1cc(C[C@@H](C[C@H](N)[C@@H](O)C[C@H](C(=O)NCC(C)(C)C(N)=O)C(C)C)C(C)C)ccc1OC | 94.5% |
| CC(C)(C)C(=O)C(Oc1ccc(Cl)cc1)n1ccnc1 (stereo not drawn) | 75.2% |

Some of these lines once more (block 3):
| target or system | test | test system | setting | inhibition |
| --- | --- | --- | --- | --- |
| human PBMC | probe labeling, inhibitor, KiNativ profiling, refers to: DVkPDNMLLDK | cell lysate | concentration not given, LYS2 site, added: ATP acyl-phosphate probe 0.1 µM | 2.7% |
| mouse PIP5K3 | probe labelling, KiNativ ADP probe | mouse brain lysate | 1 µM, ATP site | 25.5% |
| MYLK | KiNativ ATP probe | mouse brain lysate | 1 µM, LYS2 site | 8.9% |
